{"data": "Assay results from different studies", "note": "Every numbered part comes from another study and shows a few of its results, in no order. Values joined by “and” are separate records of one study, mostly repeats; a detail may differ. Substitutions count along the parent as printed."}
{"data": "Sample 1", "target": "inorganic phosphate, free oxyanion", "method": "microfluidic competitive inhibition", "medium": "in vitro, cell-free expressed", "concentration": "not given", "setting": "derived from inhibition constants, unchanged parent 615000 nM", "reading": "lower = stronger binding", "starting sequence": "PafA, mature enzyme, eGFP fusion (Elizabethkingia meningoseptica, UniProt Q9KJX5); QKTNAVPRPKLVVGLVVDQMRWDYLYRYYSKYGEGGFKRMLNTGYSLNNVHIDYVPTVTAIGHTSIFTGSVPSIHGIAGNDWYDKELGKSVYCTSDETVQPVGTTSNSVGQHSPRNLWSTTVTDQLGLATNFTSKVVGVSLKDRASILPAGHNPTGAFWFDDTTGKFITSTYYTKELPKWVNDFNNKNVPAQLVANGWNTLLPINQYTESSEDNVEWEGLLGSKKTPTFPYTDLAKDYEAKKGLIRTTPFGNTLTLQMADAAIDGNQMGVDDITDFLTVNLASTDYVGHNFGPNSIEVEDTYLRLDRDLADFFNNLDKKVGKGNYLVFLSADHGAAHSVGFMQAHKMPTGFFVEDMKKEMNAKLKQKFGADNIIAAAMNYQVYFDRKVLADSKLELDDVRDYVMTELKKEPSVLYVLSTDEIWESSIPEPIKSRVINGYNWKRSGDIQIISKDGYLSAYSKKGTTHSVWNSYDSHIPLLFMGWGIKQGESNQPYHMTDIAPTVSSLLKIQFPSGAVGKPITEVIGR"}
{"Change": "W217V", "phosphate dissociation constant [µM]": 224}
{"Change": "P203G", "phosphate dissociation constant [µM]": 503}
{"Change": "L389V", "phosphate dissociation constant [µM]": 717}
{"Change": "Y415V", "phosphate dissociation constant [µM]": 495}
{"Change": "A157G", "phosphate dissociation constant [µM]": 602}
{"Change": "G219A", "phosphate dissociation constant [µM]": 553}
{"Change": "P249G", "phosphate dissociation constant [µM]": 728}
{"Change": "R526V", "phosphate dissociation constant [µM]": 641}
{"data": "Sample 2", "target": "UDP-N-acetylglucosamine--peptide N-acetylglucosaminyltransferase 110 kDa subunit (OGT, Homo sapiens, UniProt O15294)", "observed": "binding", "method": "phage display NGS", "molecule type": "peptide", "baseline": "input library", "UniProt O15294, sequence (whole entry, looked up)": "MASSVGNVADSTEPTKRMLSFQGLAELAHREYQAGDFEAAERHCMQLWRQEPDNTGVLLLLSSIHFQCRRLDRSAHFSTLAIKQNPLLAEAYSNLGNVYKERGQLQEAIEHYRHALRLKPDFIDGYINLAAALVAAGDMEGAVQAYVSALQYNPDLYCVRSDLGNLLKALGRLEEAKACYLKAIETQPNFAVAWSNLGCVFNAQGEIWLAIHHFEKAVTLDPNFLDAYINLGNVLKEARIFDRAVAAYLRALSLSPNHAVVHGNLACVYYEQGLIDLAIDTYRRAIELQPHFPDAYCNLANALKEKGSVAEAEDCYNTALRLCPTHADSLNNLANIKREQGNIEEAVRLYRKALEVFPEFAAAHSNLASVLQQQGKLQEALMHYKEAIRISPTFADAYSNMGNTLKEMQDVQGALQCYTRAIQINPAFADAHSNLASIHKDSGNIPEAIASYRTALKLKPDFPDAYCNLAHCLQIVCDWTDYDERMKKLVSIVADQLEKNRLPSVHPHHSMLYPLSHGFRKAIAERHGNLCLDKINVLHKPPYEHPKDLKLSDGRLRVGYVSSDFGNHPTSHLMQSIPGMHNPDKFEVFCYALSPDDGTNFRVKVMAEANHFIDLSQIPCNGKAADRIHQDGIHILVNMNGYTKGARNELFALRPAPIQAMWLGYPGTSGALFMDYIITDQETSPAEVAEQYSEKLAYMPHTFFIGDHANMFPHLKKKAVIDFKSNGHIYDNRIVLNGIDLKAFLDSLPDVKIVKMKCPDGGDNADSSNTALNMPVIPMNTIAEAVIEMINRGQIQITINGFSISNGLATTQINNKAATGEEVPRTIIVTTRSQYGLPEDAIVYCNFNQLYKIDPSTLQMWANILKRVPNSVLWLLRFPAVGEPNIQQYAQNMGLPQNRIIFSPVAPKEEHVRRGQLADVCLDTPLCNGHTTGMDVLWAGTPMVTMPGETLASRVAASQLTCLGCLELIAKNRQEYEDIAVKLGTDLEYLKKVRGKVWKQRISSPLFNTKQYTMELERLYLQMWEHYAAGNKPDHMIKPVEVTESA"}
{"Sequence": "TIIHHTSTANRQHAS", "minimum log2 enrichment ratio": 2.87}
{"Sequence": "SQYVSLLPQYQITLE", "minimum log2 enrichment ratio": 1.32}
{"Sequence": "NAKFFPKYQIGMTP", "minimum log2 enrichment ratio": 1.98}
{"Sequence": "HFQEHTSHWHVYSTV", "minimum log2 enrichment ratio": 2.47}
{"Sequence": "KDIRQDYLPFYQITV", "minimum log2 enrichment ratio": 4.82}
{"Sequence": "VITGGPYYPAYQMSY", "minimum log2 enrichment ratio": 2.68}
{"Sequence": "HTAWQPWINGHDHHH", "minimum log2 enrichment ratio": 3.2}
{"Sequence": "SFKHYDHTFHYHEGS", "minimum log2 enrichment ratio": 3.08}
{"data": "Further values, each from its own experiment"}
{"Structure (SMILES)": "C[C@]12CCC(=O)C[C@@H]1CC[C@@H]1[C@@H]2CC[C@@]2(C)[C@H]1CC[C@]2(C)O", "tested on": "Sarcocystis neurona", "assay": "parasite growth", "setting": "10 µM, secondary screen", "measurement": "inhibition", "value": "0.249%"}
{"Structure (SMILES)": "O=C1CCC(N2Cc3c(ccc4c3OCC43CCN(Cc4ccccc4)CC3)C2=O)C(=O)N1 (stereo not drawn)", "test system": "male ICR mice, plasma", "setting": "oral, 3.0 mg/kg", "measurement": "oral bioavailability", "value": "104% and 86.3% and 134%"}
{"note": "A few entries again (sample 2):"}
{"Sequence": "HFQEHTSHWHVYSTV", "minimum log2 enrichment ratio": 2.47}
{"Sequence": "KDIRQDYLPFYQITV", "minimum log2 enrichment ratio": 4.82}
{"Sequence": "VITGGPYYPAYQMSY", "minimum log2 enrichment ratio": 2.68}
